Measured values from different studies.
Every numbered part comes from another study and shows a few of its results, in no order.

Sample 1
Target: RNA binding protein fox-1 homolog 2, RRM domain, GST-SBP tag (RBFOX2, Homo sapiens, UniProt O43251-10, residues 100-194)
Technique: RNA Bind-n-Seq
Form: RNA
Sample: in vitro
Tested at: 365 nM
Notes: natural RNA segment, single round, ends assumed
Baseline: no-protein control
Reading: higher = stronger binding
Residues (chain): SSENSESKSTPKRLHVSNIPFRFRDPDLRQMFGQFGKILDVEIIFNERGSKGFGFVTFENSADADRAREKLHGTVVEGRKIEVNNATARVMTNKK
| Oligonucleotide | RBNS enrichment (R) |
| --- | --- |
| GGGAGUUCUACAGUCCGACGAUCACGGGGAUGGCAACCAACAGGACUGCUAACACCUGGUGGACCAUUCUGAGUCGAUAGAAGCAGUGGUCAUCGUGUGUACUCCGACAUCUGAUGCUGUUCUCGAAAGAGAGUGGAAUUCUCGGGUGCCAA | 0.247 |
| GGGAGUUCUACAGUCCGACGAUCUGCUAGCUACCAUCUAAACUGUCCCAUUUUGACCCCUUUCUCCCCAUUAAGCCCUCUACGCUUGGCCCAUUACUCCCACCAUUUAUCCUCUUUUCCGUCUCAAAGGAAGCUGGAAUUCUCGGGUGCCAA | 2.67 |
| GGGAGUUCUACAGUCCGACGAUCAGAGAAAAAAGAAAGAAGAUAAAUGAGAAUAAUGAUAACCAGAACUUGCUGGAAAUGUGCCUACAAUGGCCUUGUAACAGCCAUUGUUCCCAACAGCAUCACUUAGGGGUUGGAAUUCUCGGGUGCCAA | 1.28 |
| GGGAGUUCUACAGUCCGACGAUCAGGAGAAAGGCGGGGAAGCUUCCUCAGCCUUGCAGAUAUGUGUGGCAUUUACUAGCCAGAGCUCUGAAAGGCAGUGCUGUCUGUUUCUUGUACUGGGACCAAAGUAAAAAUGGAAUUCUCGGGUGCCAA | 0.308 |
| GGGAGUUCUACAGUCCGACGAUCUAUAGAACCACACAAUAUUUAUCAUCAUUGGGUCAAUUUCUCCCCCUCUAUCAAGUGAGGAGAUUAAGGCUUAAAGAAAGGAAAGGACUUGCCAGCCACCACAGGGCUCAUGGAAUUCUCGGGUGCCAA | 0.364 |
| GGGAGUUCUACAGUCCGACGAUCCUAACCCAGCAUUGCCCAAACUAUUUUGACACCAGGACCUUUUUCUCCUUUGGGAUACUUAUGAACCUCUCACUAAUGUCCUGUGGAGAACAUUUUGGGAAACACUAUGUUGGAAUUCUCGGGUGCCAA | 0.512 |
| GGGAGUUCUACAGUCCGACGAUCAGGCCUGUCAGCAAAGCACCUUCCUCUGCCCACAGCCAGUCAGAGAAAACGAUCCAAAGGAGGGCAGAGGCCGCACACCCUGGGCCGAGUCCUGCCCGACUUCCCAGUUAUGGAAUUCUCGGGUGCCAA | 0.397 |
| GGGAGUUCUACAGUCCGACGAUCAUGUGCCUCUGCGGGGCAGGGCCUUCCUGGUUUUGUUCACUGCUGUACCCAGAUGCCUACAACCAUCCCUGCCACAUACAGGUGCUCAAUAAACACUUGUAGAGCAGAUGUGGAAUUCUCGGGUGCCAA | 0.205 |
| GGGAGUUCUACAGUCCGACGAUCAUCCUGACUCGUGUCUUUUUACCCCCAAGAUAUCUGUCUUCAGUAGCGACUGAAUCUGCCACUCUCAGAAUAAGUUCCUUGCAUUUAUUCCAAAUAAUCUCGUUUACUCUUGGAAUUCUCGGGUGCCAA | 0.639 |
| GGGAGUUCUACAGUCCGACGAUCUGGAUGGGUAAUUUUUAUUUCUGAUACGCAUCUUUAGAGUCAAAUAUAUCUUUUCCCUGUACUCCUCAUGUACAACCAAAGAACAUACAUUAUGAAAAUUGUAUUAUAAUUGGAAUUCUCGGGUGCCAA | 2.39 |
| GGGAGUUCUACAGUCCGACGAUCUAUGUUGAAUGCUAUUAAAUGUUUUCCUGUGUCAAAGUAAAAUAUUGUUAAUAAACCUAACAAUGACCCUGAUAGUACAGGUUAAGUGAGAGAACUAUAUGAAUUCUAACUGGAAUUCUCGGGUGCCAA | 0.728 |
| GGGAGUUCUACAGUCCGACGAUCAGGUUGAGAGUUUUGGAAUUGAUUCCAUGCUAAAUGUCAGUUACCAGUUUGGAUUGAUGAAAGUGAUUUUUCUGCUUUACCUUUUUCCUGUCAGAAAGGUUUUCCUCUGUUGGAAUUCUCGGGUGCCAA | 0.471 |

Sample 2
Organism: Saccharomyces cerevisiae
Read-out: binding
Technique: competitive growth deep sequencing
Form: peptide
Strain: cyclin D2-Cln2 fusion strain
Tested at: concentration not given
Notes: peptide tiling library
Reading: direction not given
| Molecule | growth enrichment score |
| --- | --- |
| RDLFDCDFGDLTPLDF | 1.55 |
| GLPDFVFQQQPVESEA | 0.982 |
| DVSERGYVILPNDYFE | 0.891 |
| QYQVVDDIVSKLVFDF | 0.76 |
| VEEEFFALRKRTPSAG | 0.637 |
| EAAPPTQEAQGETEPT | 0.758 |
| KPHVSDEEEEEPPFYH | 1.52 |
| ARKRLELGNLGNPQ | -1.64 |

Sample 3
Target: Fragile X messenger ribonucleoprotein 1, C-terminal low-complexity region (Fmr1, Mus musculus, UniProt P35922)
Technique: RNA Bind-n-Seq
Form: RNA
Sample: in vitro
Tested at: 200 nM
Notes: whole 134-nt RNA, ends assumed
Added: 150 mM KCl
Baseline: input library
Reading: higher = stronger binding
| Oligonucleotide | log2 enrichment |
| --- | --- |
| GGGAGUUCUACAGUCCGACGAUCCUCAAGUCCUGUGCUACACAUCGUAUGUACCGAAUCGGAAAAAGGAAAGGAGGAAAGUAUUAUGUUACGCCGUUCGGAUCUGCACUUCCAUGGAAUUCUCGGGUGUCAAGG | -0.471 |
| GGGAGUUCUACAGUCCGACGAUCAGUCCUGUGCUACACAUCGUAUGUACCGAAUCGGGGCCCCCGGGCCCCCGGCCCCCGGAAAGUAUUAUGUUACGCCGUUCGGAUCUGCACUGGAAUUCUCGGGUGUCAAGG | -0.757 |
| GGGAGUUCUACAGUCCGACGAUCUUCCCACAGCCCAAAAAUCUUCUCAACAGUGUGAUUGGAAGAGCCCUCGGCAUCUCACAUGCAAAAGACAAACUAGUCUACGUGCACACAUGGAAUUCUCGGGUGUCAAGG | 0.299 |
| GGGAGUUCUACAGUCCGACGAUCCCUGUGCUACACAUCGUAUGUACCGAAUCGGGCCCCCCGGGCCCCCCGGGCCCCCCGGGGAAAGUAUUAUGUUACGCCGUUCGGAUCUGCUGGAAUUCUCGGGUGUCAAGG | -0.678 |
| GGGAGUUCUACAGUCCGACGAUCUCCUGUGCUACACAUCGUAUGUACCGAAUCGGGGUUUUUGGGGUUUUUGGUUUUUGGGGAAAGUAUUAUGUUACGCCGUUCGGAUCUGCAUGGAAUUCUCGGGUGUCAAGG | 0.199 |
| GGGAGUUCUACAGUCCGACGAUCCACAGACAACACGCACCCACACAGACACAGAGGGAAGGGGUUGGGAUGGGGACAGGGUGCACAGCAGGGCAAAGUAGGACCCCAGCCCCUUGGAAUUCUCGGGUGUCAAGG | 1.14 |
| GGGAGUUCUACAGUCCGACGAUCGUCCUGUGCUACACAUCGUAUGUACCGAAUCGGCCCCCCGGGGCCCCCCGGCCCCCCGGAAAGUAUUAUGUUACGCCGUUCGGAUCUGCAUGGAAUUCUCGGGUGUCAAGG | -0.407 |
| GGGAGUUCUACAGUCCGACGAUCUCCUGUGCUACACAUCGUAUGUACCGAAUCAAACCCCCAAACCCCCAAAUUUUUUUAAAAAAGUAUUAUGUUACGCCGUUCGGAUCUGCAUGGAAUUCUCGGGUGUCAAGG | -0.117 |
| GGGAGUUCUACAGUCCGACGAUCUCCUGUGCUACACAUCGUAUGUACCGAAUCGGGGUGGGGAAAAAGGGGUUUUUUUGGGGAAAGUAUUAUGUUACGCCGUUCGGAUCUGCAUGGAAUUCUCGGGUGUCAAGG | 0.843 |
| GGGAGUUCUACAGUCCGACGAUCUCAAGUCCUGUGCUACACAUCGUAUGUACCGAAUCGGGGAAGGGGAAGGGGAAGGAAAGUAUUAUGUUACGCCGUUCGGAUCUGCACUUCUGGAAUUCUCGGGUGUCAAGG | 0.233 |

Sample 4
Target: Hepatocyte nuclear factor 3-alpha (Foxa1, Mus musculus, UniProt P35582, residues 1-468, full length assumed)
UniProt P35582, sequence (whole entry, looked up): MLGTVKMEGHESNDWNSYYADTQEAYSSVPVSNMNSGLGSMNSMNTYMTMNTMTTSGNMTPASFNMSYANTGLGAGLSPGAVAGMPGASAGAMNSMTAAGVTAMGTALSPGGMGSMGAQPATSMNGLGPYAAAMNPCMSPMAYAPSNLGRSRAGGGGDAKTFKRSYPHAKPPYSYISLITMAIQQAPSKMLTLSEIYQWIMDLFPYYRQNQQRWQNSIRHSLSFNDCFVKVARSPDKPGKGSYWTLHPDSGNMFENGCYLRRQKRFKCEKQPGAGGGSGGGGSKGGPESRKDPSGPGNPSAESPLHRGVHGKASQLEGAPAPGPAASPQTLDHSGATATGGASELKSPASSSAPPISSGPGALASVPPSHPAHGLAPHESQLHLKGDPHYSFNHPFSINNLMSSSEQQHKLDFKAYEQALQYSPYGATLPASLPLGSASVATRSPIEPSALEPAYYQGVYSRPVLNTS
Technique: EMSA with sequencing
Form: double-stranded DNA, one strand shown
Sample: in vitro
Tested at: 10 and 20 nM
Notes: whole designed probe, mean of two concentrations, ends assumed
Baseline: negative control set to 0
Reading: higher = stronger binding
| Oligonucleotide | normalised bound fraction [ratio] |
| --- | --- |
| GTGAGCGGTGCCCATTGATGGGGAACTTTGAAATTTAGGAAAAGTTAATATGAATGAGAGAAAAATAACCAAAAAGAAATAGCAATTATTCCTTACTAATGTTATTTTTCTGTCTGCAAAGTAATCTTAGTAAAAGAAATTTTTCACTTTAAGTTATGAAAGTTGACACTATTATCTATAATTTTTACATGTGCCTCTATTATATGTCCTCTAGCCTTTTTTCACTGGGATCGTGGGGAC | 0.00653 |
| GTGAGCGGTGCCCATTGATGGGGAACATCTTCCCCCTCTTCCTTGCCCCACCAGCTCACCTTCCCGGGTTGTTTACTTTGAGGAAATTAATATAAGCCGGCATTCGTTAACCCTCTTCTGGCGCAAACTGCTGTTTACTTTGGATGAATCATGGTCCTTTGGCGACGCCAGGCTCCGGGAGAGCAAAGCACCGTGTCAGGGCCATGATCCGGGGTGGCCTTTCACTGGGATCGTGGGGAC | 0.429 |
| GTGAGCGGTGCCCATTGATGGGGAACTCTAATCCATACCAAGGATTCCCATGGGGAAACTGTTATCTCTCAACTCAGTGAGGGCTATTGACAAAGACCAGTGCTCTTTCTTCTCTGTAGGTAAACAGTGACTCATGCAAGCCTGAGGGAGAAAATACAGTATATCTAAGAGTTAAGACCTCCCAGCTTCACATTCTGTTATAGCAGCTGCTTCATGCCATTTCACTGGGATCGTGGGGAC | 0.273 |
| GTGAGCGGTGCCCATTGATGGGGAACAAAGATTACACTTTTAAAAACTACTCTTTGATTTAAAAAATTAACTCTAAATGTATGAAAGTCTATTTTGAGTATTCAGAGCAGGTTACGGGCAAGATTACATAGTTCTGGGTACAGGGATAATTTAAGAATCAGATTTTTCTGTCATATATAACAATTTTTGAAACCTGCAAATCTGCGTGAGTTACAAGATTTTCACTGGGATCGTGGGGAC | -0.0702 |
| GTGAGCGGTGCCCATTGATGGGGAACGGTGACAAACCCAAGGCTTGTGGGCTCTGCACACCCTCCACAGTCTTTTGTGTGGCCTGTTGGCAGTTTGATTTTTACGTTTTTGGGGGATGTTGTTTGCTTTGTCTTTAAGTTTAGATGTCCGGGTTTTGTTGAGGAAAAAGAAACCCACACCAGATTTACAGTCCCCTAGATCCCCCATCTCATTCTGTGCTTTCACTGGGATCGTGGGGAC | 0.258 |
| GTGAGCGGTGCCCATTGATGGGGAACGGACACAGCCAGAGGCCATGAGTGCTCAGGAGTGCCATAAACTGTGATTTTGAGACTGCTGGGTGTGTCATAAGGCCAGGCTAAATAGCTTGTTGTTTGCCTTTTTATATTTGAGGCCTATAAAAAAATAGTGAGAAAATAGCAAGATGCCCAGGAGACAGGTGATCTGATTCAGCCAGGGGGTGGGAGGTGGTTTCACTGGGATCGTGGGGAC | 0.0704 |
| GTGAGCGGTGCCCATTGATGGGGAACTGCTGGACCCCGGGCATAGGGAGCCCTTGCTGCTTCTCCACCCACCAGTGCTGAGCTCCGGGGGAGATTGCCTTGCAGGTCCAAGGTGAGAATGTAATCTCTGCAATTCCTCTGAAAACTGGCTGGAACCTCCTCCAGGGAGGAAGGGTTGCTCATGGGCTGGCCAGGCTCCCAAACATCATACACAGCAACCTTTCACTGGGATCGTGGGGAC | -0.0553 |
| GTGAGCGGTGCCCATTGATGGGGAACCTCATTCCTTGCTTCCGCCAATAATCTGACTAGTAAAGAAGTCACTGCATGCCACAAATTGTCAGTGCTGACTTCCTCAACAAGGAAGTTATTTATTTACTTATTTAATATATGAGTGACTCAGATGCAAATTCCATCTTGAGAATACCAACTCCTGATGCCAACTGATTGTCAGTCATGGCTACAACAGGAGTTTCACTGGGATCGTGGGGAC | 0.455 |

Some of these lines once more (sample 2):
| Molecule | growth enrichment score |
| --- | --- |
| DVSERGYVILPNDYFE | 0.891 |
| QYQVVDDIVSKLVFDF | 0.76 |
| VEEEFFALRKRTPSAG | 0.637 |
| EAAPPTQEAQGETEPT | 0.758 |
